Measurements pooled from the literature.
Protocols differ between the studies behind these lines. ± gives the spread as reported.
lecB: Fucose-binding lectin PA-IIL (lecB, Pseudomonas aeruginosa, UniProt Q9HYN5)
UniProt P11362, sequence (whole entry, looked up): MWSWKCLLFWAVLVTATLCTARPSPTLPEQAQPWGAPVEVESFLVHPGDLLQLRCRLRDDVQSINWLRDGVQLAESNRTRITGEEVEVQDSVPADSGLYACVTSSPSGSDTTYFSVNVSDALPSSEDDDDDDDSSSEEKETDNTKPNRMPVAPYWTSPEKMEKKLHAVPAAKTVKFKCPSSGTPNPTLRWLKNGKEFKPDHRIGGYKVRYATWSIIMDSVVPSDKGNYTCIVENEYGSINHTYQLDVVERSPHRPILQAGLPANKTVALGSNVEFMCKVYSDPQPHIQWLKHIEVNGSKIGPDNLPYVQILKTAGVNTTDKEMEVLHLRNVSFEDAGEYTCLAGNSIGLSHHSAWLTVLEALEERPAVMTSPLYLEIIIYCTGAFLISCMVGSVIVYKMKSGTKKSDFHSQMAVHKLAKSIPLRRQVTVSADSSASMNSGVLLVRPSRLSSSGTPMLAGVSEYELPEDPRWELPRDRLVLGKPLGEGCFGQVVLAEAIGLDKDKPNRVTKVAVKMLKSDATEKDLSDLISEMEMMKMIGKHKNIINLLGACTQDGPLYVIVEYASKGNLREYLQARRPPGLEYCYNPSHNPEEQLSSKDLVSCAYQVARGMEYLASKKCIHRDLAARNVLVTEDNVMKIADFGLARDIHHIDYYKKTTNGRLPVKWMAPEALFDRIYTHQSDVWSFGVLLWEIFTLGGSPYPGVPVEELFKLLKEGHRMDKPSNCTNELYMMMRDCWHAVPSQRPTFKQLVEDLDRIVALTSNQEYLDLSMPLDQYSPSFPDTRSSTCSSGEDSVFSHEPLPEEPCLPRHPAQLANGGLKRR
UniProt O66465, sequence (whole entry, looked up): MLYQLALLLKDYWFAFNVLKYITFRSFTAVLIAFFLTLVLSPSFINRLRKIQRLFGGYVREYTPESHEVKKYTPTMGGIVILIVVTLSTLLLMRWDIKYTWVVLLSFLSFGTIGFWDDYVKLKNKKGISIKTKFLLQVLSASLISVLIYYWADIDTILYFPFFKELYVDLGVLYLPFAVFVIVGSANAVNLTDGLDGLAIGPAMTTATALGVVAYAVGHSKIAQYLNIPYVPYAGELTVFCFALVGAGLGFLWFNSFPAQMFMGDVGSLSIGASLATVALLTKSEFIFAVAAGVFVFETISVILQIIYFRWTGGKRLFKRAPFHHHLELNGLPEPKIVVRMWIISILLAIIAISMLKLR
UniProt Q96NY8, sequence (whole entry, looked up): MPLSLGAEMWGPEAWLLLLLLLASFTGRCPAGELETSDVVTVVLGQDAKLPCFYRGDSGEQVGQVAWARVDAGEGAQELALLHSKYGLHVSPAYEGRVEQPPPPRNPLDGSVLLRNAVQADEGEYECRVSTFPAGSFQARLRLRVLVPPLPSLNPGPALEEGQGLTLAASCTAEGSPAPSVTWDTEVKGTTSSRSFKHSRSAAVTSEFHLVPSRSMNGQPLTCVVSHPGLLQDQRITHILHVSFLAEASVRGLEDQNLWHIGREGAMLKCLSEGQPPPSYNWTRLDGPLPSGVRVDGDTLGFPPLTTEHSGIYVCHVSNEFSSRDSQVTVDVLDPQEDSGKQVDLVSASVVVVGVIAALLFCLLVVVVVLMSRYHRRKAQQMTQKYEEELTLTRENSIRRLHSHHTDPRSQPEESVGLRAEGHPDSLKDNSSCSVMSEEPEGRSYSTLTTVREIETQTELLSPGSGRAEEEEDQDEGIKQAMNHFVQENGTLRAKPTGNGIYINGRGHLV
UniProt Q14974, sequence (whole entry, looked up): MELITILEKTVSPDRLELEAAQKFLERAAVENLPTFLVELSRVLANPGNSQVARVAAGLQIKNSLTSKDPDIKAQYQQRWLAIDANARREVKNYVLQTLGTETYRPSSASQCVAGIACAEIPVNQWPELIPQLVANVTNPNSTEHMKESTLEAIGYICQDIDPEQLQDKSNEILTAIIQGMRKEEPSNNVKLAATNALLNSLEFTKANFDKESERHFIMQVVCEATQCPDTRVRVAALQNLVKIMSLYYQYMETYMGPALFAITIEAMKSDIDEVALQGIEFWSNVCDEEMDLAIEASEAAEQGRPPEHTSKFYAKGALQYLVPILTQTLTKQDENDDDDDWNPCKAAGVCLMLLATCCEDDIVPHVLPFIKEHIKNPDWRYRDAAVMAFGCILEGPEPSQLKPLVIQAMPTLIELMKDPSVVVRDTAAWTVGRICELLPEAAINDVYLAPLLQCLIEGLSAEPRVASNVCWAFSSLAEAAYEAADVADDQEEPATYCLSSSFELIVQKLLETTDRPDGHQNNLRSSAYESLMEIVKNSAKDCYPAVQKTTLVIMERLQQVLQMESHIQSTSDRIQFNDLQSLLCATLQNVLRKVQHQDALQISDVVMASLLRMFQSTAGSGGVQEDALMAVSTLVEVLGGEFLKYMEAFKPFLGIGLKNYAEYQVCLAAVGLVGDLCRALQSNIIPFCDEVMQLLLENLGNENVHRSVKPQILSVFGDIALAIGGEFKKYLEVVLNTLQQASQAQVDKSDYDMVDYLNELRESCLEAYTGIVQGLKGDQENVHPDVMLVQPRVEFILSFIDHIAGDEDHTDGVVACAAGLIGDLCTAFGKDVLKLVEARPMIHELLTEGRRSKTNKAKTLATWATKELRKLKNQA
UniProt P21564, sequence (whole entry, unmodified, looked up): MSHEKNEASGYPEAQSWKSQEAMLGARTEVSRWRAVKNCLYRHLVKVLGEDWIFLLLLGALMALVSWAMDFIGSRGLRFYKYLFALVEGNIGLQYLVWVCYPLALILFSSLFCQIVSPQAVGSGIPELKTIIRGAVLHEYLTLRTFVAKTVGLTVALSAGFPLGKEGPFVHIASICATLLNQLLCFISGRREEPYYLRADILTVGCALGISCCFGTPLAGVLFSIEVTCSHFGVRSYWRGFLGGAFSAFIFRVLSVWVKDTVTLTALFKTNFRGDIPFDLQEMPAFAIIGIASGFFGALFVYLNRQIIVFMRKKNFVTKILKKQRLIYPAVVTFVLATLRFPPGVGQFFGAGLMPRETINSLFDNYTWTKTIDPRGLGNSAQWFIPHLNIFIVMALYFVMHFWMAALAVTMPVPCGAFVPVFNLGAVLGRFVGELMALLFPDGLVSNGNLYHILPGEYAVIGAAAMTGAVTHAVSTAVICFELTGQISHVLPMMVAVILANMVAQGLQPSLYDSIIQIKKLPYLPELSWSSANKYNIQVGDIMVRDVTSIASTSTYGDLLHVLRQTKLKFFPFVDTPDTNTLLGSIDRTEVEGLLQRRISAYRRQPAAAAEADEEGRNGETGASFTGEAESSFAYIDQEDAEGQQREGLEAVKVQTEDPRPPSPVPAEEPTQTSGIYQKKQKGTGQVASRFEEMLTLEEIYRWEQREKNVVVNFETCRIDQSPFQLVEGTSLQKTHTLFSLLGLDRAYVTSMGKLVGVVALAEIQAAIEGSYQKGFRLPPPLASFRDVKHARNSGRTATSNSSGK
UniProt Q9HB29, sequence (whole entry, looked up): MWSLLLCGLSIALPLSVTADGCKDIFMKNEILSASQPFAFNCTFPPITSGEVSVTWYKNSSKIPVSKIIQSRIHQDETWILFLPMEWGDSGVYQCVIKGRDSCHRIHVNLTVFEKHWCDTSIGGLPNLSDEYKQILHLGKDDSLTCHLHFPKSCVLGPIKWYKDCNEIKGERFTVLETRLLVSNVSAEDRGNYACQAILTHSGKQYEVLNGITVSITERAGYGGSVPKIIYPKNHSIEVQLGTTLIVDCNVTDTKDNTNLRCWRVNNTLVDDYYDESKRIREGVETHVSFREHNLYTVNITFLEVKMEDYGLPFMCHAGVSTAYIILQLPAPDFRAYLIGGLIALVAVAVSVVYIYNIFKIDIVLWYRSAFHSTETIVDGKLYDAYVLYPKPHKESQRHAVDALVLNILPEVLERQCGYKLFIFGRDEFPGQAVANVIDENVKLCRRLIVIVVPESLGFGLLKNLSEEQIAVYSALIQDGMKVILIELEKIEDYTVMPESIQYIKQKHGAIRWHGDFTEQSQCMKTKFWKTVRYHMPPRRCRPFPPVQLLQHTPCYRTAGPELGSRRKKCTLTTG
UniProt P25440, sequence (whole entry, looked up): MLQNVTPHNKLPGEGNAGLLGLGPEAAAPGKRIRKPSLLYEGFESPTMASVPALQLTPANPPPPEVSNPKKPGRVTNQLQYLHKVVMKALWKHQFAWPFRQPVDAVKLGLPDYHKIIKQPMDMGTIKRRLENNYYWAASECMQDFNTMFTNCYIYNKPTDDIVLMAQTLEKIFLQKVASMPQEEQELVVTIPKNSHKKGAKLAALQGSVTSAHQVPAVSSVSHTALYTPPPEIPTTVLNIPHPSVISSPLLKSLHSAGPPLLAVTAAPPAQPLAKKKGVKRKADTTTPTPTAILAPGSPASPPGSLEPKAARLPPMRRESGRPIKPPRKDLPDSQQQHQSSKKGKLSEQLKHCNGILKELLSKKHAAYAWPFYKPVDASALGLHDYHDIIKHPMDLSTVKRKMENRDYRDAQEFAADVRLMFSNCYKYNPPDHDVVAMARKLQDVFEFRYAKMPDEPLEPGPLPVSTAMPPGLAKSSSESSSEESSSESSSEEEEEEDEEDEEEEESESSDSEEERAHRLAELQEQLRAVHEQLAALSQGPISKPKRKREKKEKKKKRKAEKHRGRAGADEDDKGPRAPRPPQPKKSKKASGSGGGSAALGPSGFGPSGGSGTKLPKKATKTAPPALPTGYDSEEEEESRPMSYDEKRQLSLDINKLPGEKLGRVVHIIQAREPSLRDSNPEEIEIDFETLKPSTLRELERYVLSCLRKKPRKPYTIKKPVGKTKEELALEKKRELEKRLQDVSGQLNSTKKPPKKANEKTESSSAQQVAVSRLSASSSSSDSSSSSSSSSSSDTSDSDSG
UniProt O54709, sequence (whole entry, looked up): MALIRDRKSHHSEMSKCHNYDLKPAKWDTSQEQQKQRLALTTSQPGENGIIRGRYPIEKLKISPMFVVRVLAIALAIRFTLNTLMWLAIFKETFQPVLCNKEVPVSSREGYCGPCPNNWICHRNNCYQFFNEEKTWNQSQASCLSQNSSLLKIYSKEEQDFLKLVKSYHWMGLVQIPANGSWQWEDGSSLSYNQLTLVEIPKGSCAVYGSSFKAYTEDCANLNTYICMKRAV

| Compound | target | assay | system | setting | Kd [µM] |
| --- | --- | --- | --- | --- | --- |
| CN1C(=O)[C@H](Cc2ccccc2)N(C)C(=O)[C@@H]2[C@H]1CCN2Cc1cc(Cl)cc(Cl)c1 | NKG2-D type II integral membrane protein (Klrk1, Mus musculus, UniProt O54709) | binding, surface plasmon resonance | – | – | > 80 |
| CC[C@H](C)[C@H](NC(=O)[C@@H]1CCCN1C(=O)[C@H](CCCCN)NC(=O)[C@H](CO)NC(=O)[C@H](CO)NC(=O)[C@H](Cc1ccc(O)cc1)NC(=O)[C@H](CO)NC(=O)[C@H](C)NC(=O)[C@H](CO)NC(=O)[C@@H](N)Cc1ccccc1)C(=O)N[C@@H](CCC(N)=O)C(=O)N[C@H](C(=O)N[C@@H](CCC(N)=O)C(=O)N[C@H](C(=O)N[C@@H](CO)C(=O)N[C@@H](CC(N)=O)C(=O)NCC(=O)N[C@@H](CCSC)C(=O)N[C@@H](CC(=O)O)C(=O)N[C@@H](CC(N)=O)C(=O)N[C@@H](C)C(=O)N[C@@H](CO)C(=O)N[C@@H](C)C(=O)N1CCC[C@H]1C(=O)N[C@H](C(=O)O)C(C)C)C(C)C)[C@@H](C)O | Peptide cyclase 1 (Gypsophila vaccaria, UniProt R4P353, S562A) | – | – | – | 0.136 ± 0.019 |
| O=C(O)COc1ccc(Cl)cc1 | Chloride channel protein (Torpedo marmorata, UniProt P21564, C212S) | ion current, inhibitor, inside-out patch clamp | – | intracellular, 60 mV | ~65000 |
| CC[C@H](C)[C@H](NC(=O)[C@H](Cc1c[nH]cn1)NC(=O)[C@H](CCCCNC(=O)[C@@H](NC(=O)[C@H](CCCCN)NC(=O)CSC[C@H](NC(=O)[C@H](Cc1ccccc1)NC(=O)[C@H](CCCCNC(=O)[C@H](CC(C)C)NC(=O)[C@@H]1CCCN1C(=O)[C@H](CCCCN)NC(=O)C[C@@H]1O[C@@H](C)[C@@H](O)[C@@H](O)[C@@H]1O)NC(=O)[C@H](CC(C)C)NC(=O)[C@@H]1CCCN1C(=O)[C@H](CCCCN)NC(=O)c1ccc(O[C@@H]2O[C@H](CO)[C@H](O)[C@H](O)[C@H]2O)cc1)C(N)=O)[C@@H](C)CC)NC(=O)[C@@H](NC(=O)[C@H](CCCCN)NC(=O)CSC[C@H](NC(=O)[C@H](Cc1ccccc1)NC(=O)[C@H](CCCCNC(=O)[C@H](CC(C)C)NC(=O)[C@@H]1CCCN1C(=O)[C@H](CCCCN)NC(=O)C[C@@H]1O[C@@H](C)[C@@H](O)[C@@H](O)[C@@H]1O)NC(=O)[C@H](CC(C)C)NC(=O)[C@@H]1CCCN1C(=O)[C@H](CCCCN)NC(=O)c1ccc(O[C@@H]2O[C@H](CO)[C@H](O)[C@H](O)[C@H]2O)cc1)C(N)=O)[C@@H](C)CC)C(N)=O | lecB | binding, ITC | – | pH 7.5 | 0.292 |
| CC(C)C[C@@H]1NC(=O)[C@H](Cc2ccc(O)cc2)NC(=O)[C@H](CCCNC(=N)N)NC(=O)[C@H](C(C)C)NC(=O)[C@@H]2CCCN2C(=O)[C@H](Cc2ccccc2)NC(=O)[C@H](C)NC(=O)[C@H](CC(N)=O)NC(=O)[C@H](Cc2ccc(OS(=O)(=O)F)cc2)NC(=O)[C@@H](Cc2ccccc2)NC(=O)CSC[C@@H](C(=O)NCCOCCOCC(=O)NCCOCCOCC(=O)N[C@@H](CCCCN=[N+]=[N-])C(N)=O)NC(=O)[C@H](Cc2c[nH]c3ccccc23)NC(=O)[C@H](CCCNC(=N)N)NC(=O)[C@H](CCCCN)NC1=O | Nectin-4, extracellular domain (Homo sapiens, UniProt Q96NY8) | covalent binder, SPR single-cycle kinetics | PBS-T | 30 s contact, 25 °C | 6.4 |
| COC(=O)C(C)C1N=C(c2ccc(Cl)cc2)c2cc(OC)ccc2-n2c(C)nnc21 (stereo not shown) | Bromodomain-containing protein 2, BD1 (BRD2, Homo sapiens, UniProt P25440) | binding, ITC | – | – | 1.5 |
| Cc1ccc2c(N)c(C(=O)Nc3cccc(C(F)(F)F)c3)sc2n1 | HIV-1 TAR RNA hairpin, 2-AP at U25 | binding, 2-aminopurine fluorescence titration | PBS | pH 7.4, together with: 2-AP TAR RNA 500 nM | 2.4 |
| C=C(C)C12OC3(c4ccccc4)OC1C1C(O)C(Br)(CO)C(O)C4(O)C(=O)C(C)=CC4C1(O3)C(C)C2OC(=O)c1ccccc1 (stereo not shown) | KPNB1 (Homo sapiens, UniProt Q14974) | – | – | – | 0.219 |
| CC[C@H](C)[C@H](NC(=O)[C@H](Cc1c[nH]cn1)NC(=O)[C@H](CCCCNC(=O)[C@@H](NC(=O)[C@H](CCCCN)NC(=O)CSC[C@H](NC(=O)[C@H](Cc1ccccc1)NC(=O)[C@H](CCCCNC(=O)[C@H](CC(C)C)NC(=O)[C@H](CCCCN)NC(=O)[C@H](CCCCN)NC(=O)CCS[C@@H]1O[C@H](CO)[C@H](O)[C@H](O)[C@H]1O)NC(=O)[C@H](CC(C)C)NC(=O)[C@H](CCCCN)NC(=O)[C@H](CCCCN)NC(=O)C[C@@H]1O[C@@H](C)[C@@H](O)[C@@H](O)[C@@H]1O)C(N)=O)[C@@H](C)CC)NC(=O)[C@@H](NC(=O)[C@H](CCCCN)NC(=O)CSC[C@H](NC(=O)[C@H](Cc1ccccc1)NC(=O)[C@H](CCCCNC(=O)[C@H](CC(C)C)NC(=O)[C@H](CCCCN)NC(=O)[C@H](CCCCN)NC(=O)CCS[C@@H]1O[C@H](CO)[C@H](O)[C@H](O)[C@H]1O)NC(=O)[C@H](CC(C)C)NC(=O)[C@H](CCCCN)NC(=O)[C@H](CCCCN)NC(=O)C[C@@H]1O[C@@H](C)[C@@H](O)[C@@H](O)[C@@H]1O)C(N)=O)[C@@H](C)CC)C(N)=O | lecB | binding, ITC | – | pH 7.5 | 0.327 |
| CC(C)[C@@H]1NC(=O)[C@H](Cc2ccccc2)NC(=O)CSC[C@@H](C(N)=O)NC(=O)[C@H](CCC(=O)O)NC(=O)[C@H](CO)NC(=O)[C@H](Cc2c[nH]c3ccccc23)NC(=O)[C@H](C(C)C)NC(=O)[C@H](C(C)C)NC(=O)[C@H](Cc2ccc(O)cc2)NC(=O)[C@H](CC(=O)O)NC(=O)[C@H](Cc2c[nH]c3ccccc23)NC(=O)[C@H](Cc2ccc(O)cc2)NC(=O)[C@H](Cc2c[nH]c3ccccc23)NC(=O)[C@H](CCC(=O)O)NC1=O | Interleukin-1 receptor-like 2, D1-D3 domains (IL1RL2, Homo sapiens, UniProt Q9HB29) | SPR | – | IL-36R D1-D3 | 1.1 |
| C[C@@H](O)[C@H](NC(=O)[C@H](CCCCN)NC(=O)CCCC(=O)O)C(=O)NCC(=O)N[C@@H](CC(=O)O)C(=O)N[C@@H](CCC(=O)O)C(=O)N[C@@H](CCCCN)C(=O)N[C@@H](CCCCN)C(=O)NCC(=O)NCC(=O)N[C@@H](Cc1ccc(O)cc1)C(=O)NCC(=O)N[C@@H](CCCNC(=N)N)C(=O)N[C@@H](CCCCN)C(=O)N[C@@H](CCCCN)C(=O)N[C@@H](CCCNC(=N)N)C(=O)N[C@@H](CCCNC(=N)N)C(=O)N[C@@H](CCC(N)=O)C(=O)N[C@@H](CCCNC(=N)N)C(=O)N[C@@H](CCCNC(=N)N)C(=O)N[C@@H](CCCNC(=N)N)C(N)=O | HSP90AA1 (Homo sapiens, UniProt P07900) | binding, field-effect biosensor | – | pH 7.4 | 30 ± 5.44 |
| CSCC[C@H](NC(C)=O)C(=O)N[C@@H](Cc1ccccc1)C(=O)N[C@@H](CC(N)=O)C(=O)N[C@H]1CSCc2cc3cc(c2)CSC[C@H](NC(=O)[C@H]([C@@H](C)O)NC(=O)[C@H](Cc2c[nH]cn2)NC(=O)[C@H](CO)NC(=O)[C@H](Cc2ccc(O)cc2)NC(=O)[C@H](Cc2ccccc2)NC(=O)[C@@H]2CCCN2C(=O)[C@H](CC(C)C)NC(=O)[C@H](CC(C)C)NC1=O)C(=O)N[C@@H](CO)C(=O)N[C@H](C(=O)NCC(=O)N[C@@H](CO)C(=O)NCC(=O)N[C@@H](CO)C(=O)NCC(=O)N[C@@H](CO)C(=O)N[C@@H](CC(=O)O)C(=O)N[C@@H](Cc1ccc(O)cc1)C(=O)N[C@@H](CCCCN)C(=O)N[C@@H](CC(=O)O)C(=O)N[C@@H](CC(=O)O)C(=O)N[C@@H](CC(=O)O)C(=O)N[C@@H](CC(=O)O)C(=O)N[C@@H](CCCCN)C(N)=O)CSC3 | FGFR1 (Homo sapiens, UniProt P11362) | binding, BLI | – | – | > 10 |
| CC(C)[C@H](NC(=O)[C@@H](NC(=O)[C@H](CO)NC(=O)[C@H](CS)NC(=O)[C@H](CC(=O)O)NC(=O)[C@@H]1CCCN1C(=O)[C@H](CCCCN)NC(=O)[C@@H](N)CO)[C@@H](C)O)C(=O)NCC(=O)NCC(=O)N1CCC[C@H]1C(=O)N[C@@H](CCCNC(=N)N)C(=O)O | Gamma-enolase (ENO2, Homo sapiens, UniProt P09104) | biolayer interferometry | – | – | 1 |
| NCC(=O)NCC(=O)N[C@@H](Cc1c[nH]cn1)C(=O)O | HCV IIB RNA | fluorescein-labelled RNA titration | – | 1 mM TCEP | 400 ± 100 |
| CC(C)CC(NC(=O)C(NC(=O)NC(C(=O)O)C(C)C)C1CCNC(=N)N1)C(=O)NCCCNC(C(=O)O)C(OC1OC(CN)C(O)C1O)C1OC(n2ccc(=O)[nH]c2=O)C(O)C1O (stereo not shown) | mraY (Aquifex aeolicus, UniProt O66465) | isothermal titration calorimetry | – | no added Mg2+ | 0.0148 |
| N=C(N)NCCC[C@H](NC(=O)[C@H](Cc1ccccc1)NC(=O)[C@@H]1CCCN1C(=O)[C@H](CO)NC(=O)[C@H](Cc1ccccc1)NC(=O)CNC(=O)[C@@H]1CCCN1C(=O)[C@@H]1CCCN1C(=O)[C@@H](N)CCCNC(=N)N)C(=O)N[C@@H](CCCCNS(=O)(=O)c1ccc(C2=c3cc4c5c(c3Oc3c2cc2c6c3CCCN6CCC2)CCC[N+]=5CCC4)c(S(=O)(=O)[O-])c1)C(=O)O | Oligopeptide-binding protein OppA (oppA, Lactococcus lactis subsp. lactis, UniProt Q07741) | binding, fluorescence anisotropy | – | pH 6, 45 °C, together with: dye-labelled peptide | 24 ± 1 |

Excerpt of the above:
| Compound | target | assay | system | setting | Kd [µM] |
| --- | --- | --- | --- | --- | --- |
| CC[C@H](C)[C@H](NC(=O)[C@@H]1CCCN1C(=O)[C@H](CCCCN)NC(=O)[C@H](CO)NC(=O)[C@H](CO)NC(=O)[C@H](Cc1ccc(O)cc1)NC(=O)[C@H](CO)NC(=O)[C@H](C)NC(=O)[C@H](CO)NC(=O)[C@@H](N)Cc1ccccc1)C(=O)N[C@@H](CCC(N)=O)C(=O)N[C@H](C(=O)N[C@@H](CCC(N)=O)C(=O)N[C@H](C(=O)N[C@@H](CO)C(=O)N[C@@H](CC(N)=O)C(=O)NCC(=O)N[C@@H](CCSC)C(=O)N[C@@H](CC(=O)O)C(=O)N[C@@H](CC(N)=O)C(=O)N[C@@H](C)C(=O)N[C@@H](CO)C(=O)N[C@@H](C)C(=O)N1CCC[C@H]1C(=O)N[C@H](C(=O)O)C(C)C)C(C)C)[C@@H](C)O | Peptide cyclase 1 (Gypsophila vaccaria, UniProt R4P353, S562A) | – | – | – | 0.136 ± 0.019 |
| O=C(O)COc1ccc(Cl)cc1 | Chloride channel protein (Torpedo marmorata, UniProt P21564, C212S) | ion current, inhibitor, inside-out patch clamp | – | intracellular, 60 mV | ~65000 |
